Assay results gathered from unrelated publications.
Values joined by “and” are separate records of one study, mostly repeats; a detail may differ.
Sialidase-3: Sialidase-3 (Homo sapiens, UniProt Q9UQ49)
HLA class I histocompatibility antigen, B alpha chain: HLA class I histocompatibility antigen, B alpha chain (Homo sapiens, UniProt P01889)
PFF0160c E182D: Dihydroorotate dehydrogenase (quinone), mitochondrial (PFF0160c, Plasmodium falciparum, UniProt Q08210, E182D)
PFF0160c: Dihydroorotate dehydrogenase (quinone), mitochondrial (PFF0160c, Plasmodium falciparum, UniProt Q08210)
gyrA: DNA gyrase subunit A (gyrA, Escherichia coli K-12, UniProt P0AES4)

`CC(C)Cc1cn([C@H]2[C@H]([C@H](O)[C@H](O)CO)OC(C(=O)O)=C[C@@H]2O)nn1` gave an IC50 of over 500 µM (Sialidase-3; enzyme activity, inhibitor).
`CC[C@H](C)[C@H](NC(=O)[C@@H]1CCCN1C(=O)CNC(=O)[C@@H]1CCCN1C(=O)[C@H](Cc1ccc(O)cc1)NC(=O)[C@H](CC(C)C)NC(=O)[C@@H](N)CCCCN)C(=O)N[C@@H](CC(C)C)C(=O)N[C@@H](CCSC)C(=O)O` gave an IC50 of 35.6 µM (HLA class I histocompatibility antigen, B alpha chain; cell-free assay).
`CC(c1ccc(OC(F)(F)F)cc1)c1nn2c(-c3cccs3)nnc2s1` (stereo not shown) gave an IC50 of 0.804 µM (PFF0160c E182D; enzyme activity, inhibitor, absorbance).
With `CCn1ccc2c([C@@](O)(CC)c3ccc(C(F)(F)F)nc3)n(C)nc2c1=O` the IC50 was 0.0501 µM (PFF0160c; enzyme activity, inhibitor).
For `CCN[C@H]1[C@H]([C@H](O)[C@H](O)CO)OC(C(=O)O)=C[C@@H]1O`, the IC50 was 190 µM (Sialidase-3; enzyme activity, inhibitor).
`Cc1cc(Nc2ccc(C(C)(C)C)cc2)c2[nH]ncc2n1` has an IC50 of 6.69 µM (PFF0160c E182D; enzyme activity, inhibitor, absorbance).
For `CC[C@H](C)[C@H](NC(=O)[C@H](Cc1c[nH]cn1)NC(=O)[C@H](CCCCN)NC(=O)[C@H](Cc1ccc(O)cc1)NC(=O)[C@@H](NC(=O)[C@@H](N)Cc1c[nH]cn1)C(C)C)C(=O)N[C@@H](CC(C)C)C(=O)N[C@H](C(=O)N[C@@H](Cc1ccccc1)C(=O)O)[C@@H](C)O`, the IC50 was 8.64 µM (HLA class I histocompatibility antigen, B alpha chain; cell-free assay).
With `[2H]c1c([2H])c([C@]2([2H])CCCN2C(=O)C(C)(C)Oc2ccc3cn[nH]c3c2)c([2H])c([2H])c1C([2H])([2H])[2H]` the remaining binding was 71% (Ribosomal protein S6 kinase alpha-1, C-terminal kinase domain (RPS6KA1, Homo sapiens, UniProt Q15418); binding, competition with immobilised ligand; 1 µM).
`CCn1cc(C)c2c(Cc3ccc(C(F)(F)F)nc3)n(C)nc2c1=O` gave an IC50 of 0.0631 µM (PFF0160c; enzyme activity, inhibitor).
`Cc1c(C(=O)Nc2cc(Cl)cc(Cl)c2)cccc1[N+](=O)[O-]` has an IC50 of 2.41 µM (PFF0160c; enzyme activity, inhibitor, absorbance).
`CC[C@@](N)(c1cnc(C(F)(F)F)c(Cl)c1)c1c2ncn(C3CC3)c(=O)c2nn1C` has an IC50 of 0.0501 µM (PFF0160c; enzyme activity, inhibitor).
With `CSCC[C@H](NC(=O)[C@@H](N)CCCNC(=N)N)C(=O)N[C@@H](Cc1ccc(O)cc1)C(=O)N[C@@H](CC(=O)O)C(=O)N[C@@H](CCCNC(=N)N)C(=O)N[C@@H](Cc1c[nH]cn1)C(=O)N[C@@H](Cc1ccc(O)cc1)C(=O)N[C@@H](CC(C)C)C(=O)N[C@@H](Cc1ccccc1)C(=O)O` the IC50 was 37.3 µM (HLA class I histocompatibility antigen, B alpha chain; cell-free assay).
With `CN1C(=O)Cc2ccc(F)c(CNCCCC3CN(c4ccc5c(n4)NC(=O)CO5)C(=O)O3)c21` (stereo not shown) the IC50 was 0.054 µM (gyrA; enzyme activity, inhibitor).
The IC50 of `Cn1nc2c(=O)n(C3CC3)ncc2c1[C@](N)(c1ccc(C(F)(F)F)c(Cl)c1)C1CC1` is reported as 0.0158 µM (PFF0160c; enzyme activity, inhibitor).
The IC50 of `CC(=O)c1c(Cc2cccc(C(F)(F)F)c2)c[nH]c1C` is reported as 0.537 µM (PFF0160c E182D; enzyme activity, inhibitor, absorbance).
For `CCCCCC(=O)N[C@H]1[C@H]([C@H](O)[C@H](O)CO)OC(C(=O)O)=C[C@@H]1O`, the IC50 was over 500 µM (Sialidase-3; enzyme activity, inhibitor).
For `O=C(O[C@@H]1Cc2c(O)cc(O)cc2O[C@@H]1c1cc(=O)c(O)c2c(O)c(O)cc([C@H]3Oc4cc(O)cc(O)c4C[C@H]3O)c2c1)c1cc(O)c(O)c(O)c1`, the IC50 was 3.4 µM (P4HB (Homo sapiens, UniProt P07237); enzyme activity, inhibitor, fluorescence).
For `CCN(C)C(=O)Oc1ccc(CCC(=O)N(CC)CC)cc1OC`, the IC50 was 18.1 µM (Cholinesterase (BCHE, Equus caballus, UniProt P81908); enzyme activity, inhibitor, Ellman).
`O=c1cc(NCCCNCc2sc(Br)c(Br)c2Br)[nH]c2ccccc12` gave an IC50 of 2.42 µM (PFF0160c E182D; enzyme activity, inhibitor, absorbance).
For `CC[C@](N)(c1cnc(C(F)(F)F)c(Cl)c1)c1c2ccn(C3CC3)c(=O)c2nn1C`, the IC50 was 15.8 µM (PFF0160c; enzyme activity, inhibitor).
`COc1cc(CCC(=O)N2CCC(Cc3ccccc3)CC2)ccc1OC(=O)N(C)C` has an IC50 of 0.95 µM (Cholinesterase (BCHE, Homo sapiens, UniProt P06276); enzyme activity, inhibitor, Ellman).
With `CC(C)CCN[C@H]1[C@H]([C@H](O)[C@H](O)CO)OC(C(=O)O)=C[C@@H]1O` the IC50 was 400 µM (Sialidase-3; enzyme activity, inhibitor).
The IC50 of `Cc1nc(Nc2ccc(S(F)(F)(F)(F)F)cc2)c2c(C)noc2n1` is reported as 0.951 µM (PFF0160c E182D; enzyme activity, inhibitor, absorbance).
The IC50 of `CN1CCc2[nH]c3ccccc3c2CC1` is reported as 330 µM and > 180 µM (Voltage-dependent N-type calcium channel subunit alpha-1B (Homo sapiens, UniProt Q00975); ion current, inhibitor, patch clamp).
With `CCN(C)C(=O)Oc1ccc(CCC(=O)N2CCc3ccccc3C2)cc1` the IC50 was 25.3 µM (Cholinesterase (BCHE, Equus caballus, UniProt P81908); enzyme activity, inhibitor, Ellman).
With `Oc1cccc(CCN(CCc2ccccc2)CC2CCC2)c1` the IC50 was 8.8 µM (OPRD1 (Homo sapiens, UniProt P41143); β-arrestin recruitment, antagonist).
With `Cc1c(C(=O)OC2CC2)nn(C)c1Cc1ccc(C(F)(F)F)nc1` the IC50 was 0.1 µM (PFF0160c; enzyme activity, inhibitor).
With `COc1ccccc1Cn1ccnc1SCC(=O)Nc1cc(C(F)(F)F)ccc1Cl` the IC50 was 0.0461 µM (PFF0160c; enzyme activity, inhibitor, absorbance).
The IC50 of `CC[C@H](C)[C@H](NC(=O)[C@H](C)N)C(=O)N[C@@H](CC(N)=O)C(=O)N[C@@H](CC(=O)O)C(=O)N1CCC[C@H]1C(=O)N[C@@H](Cc1ccccc1)C(=O)O` is reported as over 1000 µM (ACE (Oryctolagus cuniculus, UniProt P12822); enzyme activity, inhibitor).
The IC50 of `O=C(CN1CCN(C(=O)c2ccco2)CC1)Nc1ccccc1Br` is reported as 1.59 µM (PFF0160c E182D; enzyme activity, inhibitor, absorbance).
The IC50 of `CN1C(=O)Cc2ccc(F)c(CCNCC[C@H]3CN(c4ccc5c(n4)NC(=O)CO5)C(=O)O3)c21` is reported as 0.1 µM (gyrA; enzyme activity, inhibitor).
